Measured values from different studies.
Each line is one published result; not all experiments were run side by side. ± gives the spread as reported.
Cell line: Caco-2 monolayer

C[C@@H]1O[C@@H](OC[C@H]2O[C@@H](Oc3c(-c4ccc(O)c(O)c4)oc4cc(O)cc(O)c4c3=O)[C@H](O)[C@@H](O)[C@@H]2O)[C@H](O)[C@H](O)[C@H]1O — Papp increase (transwell permeability; 100 µg/mL, apical to basolateral, HBSS, DMSO 1%, together with: digoxin 5 ng/mL; baseline: digoxin alone): 10.8%
COc1ccc(-c2coc3cc(O)cc(O)c3c2=O)cc1 — recovery (100 µg/mL, 2 h, apical to basolateral): 100.2 ± 0.3%
CO/N=C(\C(=O)N[C@@H]1C(=O)N2C(C(=O)O)=C(CSC(=O)c3ccco3)CS[C@H]12)c1csc(N)n1 — Papp (200 µg/mL, 120 min, pH 7.4, without luteolin): 1 to 10 ×10⁻⁶ cm/s
Cn1nc2c(=O)n(C3CC3)ccc2c1[C@](O)(c1cnc(C(F)(F)F)c(Cl)c1)C(F)(F)F — Papp (A-B): 43.8 ×10⁻⁶ cm/s
O=c1cc(-c2ccc(O)cc2)oc2c([C@@H]3O[C@H](CO)[C@@H](O)[C@H](O)[C@H]3O)c(O)cc(O)c12 — Papp increase (transwell permeability; 100 µg/mL, apical to basolateral, HBSS, DMSO 1%, together with: SDS 10 mg/mL; baseline: SDS alone): 8.86%
O=C(CS)NCCCCCC(=O)Nc1cccc2cccnc12 — efflux ratio (together with: N-benzyl-indomethacin 145 µM; baseline: Papp B-A over Papp A-B): 0.93
Cc1nn(C2CC2)c(=O)c2nn(C)c(Cc3ccc(C(F)(F)F)c(C#N)c3)c12 — Papp (B-A): 61.2 ×10⁻⁶ cm/s
CC(=O)N[C@H]1[C@H]([C@H](O)[C@H](O)CO)OC(C(=O)O)=C[C@@H]1N=C(N)N — Papp (HBSS; 180 min, basolateral to apical): 0.045 ± 0.004 ×10⁻⁶ cm/s
Cn1nc2c(=O)n(C3CC3)cnc2c1[C@](O)(c1cnc(C(F)(F)F)c(Cl)c1)C(F)(F)F — Papp (A-B): 64.4 ×10⁻⁶ cm/s
O=c1c(O[C@@H]2O[C@H](CO)[C@H](O)[C@H](O)[C@H]2O)c(-c2ccc(O)c(O)c2)oc2cc(O)cc(O)c12 — Papp increase (transwell permeability; 100 µg/mL, apical to basolateral, HBSS, DMSO 1%, together with: verapamil 0.1 mg/mL; baseline: verapamil alone): 23.7%
CC(C)NCC(O)COc1cccc2ccccc12 (centres unmarked) — Papp: 62.4 ×10⁻⁶ cm/s

A few entries again:
Cn1nc2c(=O)n(C3CC3)cnc2c1[C@](O)(c1cnc(C(F)(F)F)c(Cl)c1)C(F)(F)F — Papp (A-B): 64.4 ×10⁻⁶ cm/s
O=c1c(O[C@@H]2O[C@H](CO)[C@H](O)[C@H](O)[C@H]2O)c(-c2ccc(O)c(O)c2)oc2cc(O)cc(O)c12 — Papp increase (transwell permeability; 100 µg/mL, apical to basolateral, HBSS, DMSO 1%, together with: verapamil 0.1 mg/mL; baseline: verapamil alone): 23.7%
